# Results gathered from unrelated publications.
# Each line is one published result; not all experiments were run side by side. ± gives the spread as reported.
Compound,tested on,assay,system,setting,endpoint,value
C=CC(=O)N1CCc2ccc(-n3c(=O)ccc4cnc5ccc(-c6cnn(C)c6)cc5c43)cc21,BCWM1,cell growth or viability,,48 h,GI50,0.12 µM
COC1CN([C@H]2CC[C@H]([C@@]3(C)Oc4c(Cl)cc(C(=O)NCc5c(SC)cc(C)[nH]c5=O)c(C)c4O3)CC2)C1,UMUC3,"cell growth or viability, ATP luminescence",,12 days,GI50,> 1 µM
COc1cc(CNC(=O)C[C@H](C)CCC=C(C)C)ccc1OCc1cn(-c2ccc(Cl)cc2Cl)nn1,SK-MEL-5 melanoma cells,SRB,,"10 µM, 48 h",growth percent,60.4%
O=C1Nc2ccc(F)cc2C1=Cc1c(Cl)[nH]c2c1ccc1ccccc12,NCI-60 cell panel,,,"48 h, panel mean",GI50,0.47 µM
CCN1CCN(Cc2ccc(C(=O)Nc3ccc(C)c(NCc4cnc5[nH]ccc5c4OC)c3)cc2C(F)(F)F)CC1,"EJ, wild type",cell proliferation,,48 h,GI50,4.6 µM
[64Cu+2].c1cnc(CNCc2ccc(CN3CCCN4CCNCCCN(CC4)CC3)cc2)nc1,CXCR4,,"NOD/SCID mouse, U87 and U87-stb-CXCR4 xenografts, pancreas","iv, 240 min, ex vivo",tissue uptake,1.6 ± 0.25 %ID/g
CC/C=C\C/C=C\C/C=C\C/C=C\C/C=C\C/C=C\CCC(=O)Nc1ccn(C2OC(CO)C(O)C2(F)F)c(=O)n1 (stereo not drawn),HOP-92,"cell growth or viability, SRB",,,GI50,0.771 µM
CCC(=C(c1ccc(Cl)cc1)c1ccc(OCCCN(C)C)cc1)c1ccc(OC)cc1,UACC-257,"cell growth or viability, SRB",,,GI50,7.93 µM
COc1cc2c(C=C3C(=O)Nc4ccccc43)c[nH]c2cc1C,NCI-60 cell panel,,,"48 h, panel mean",GI50,0.13 µM
COc1cc(CNC(=O)C[C@H](C)CCC=C(C)C)ccc1OCc1cn(-c2ccc(C#N)cc2)nn1,NCI-H322M,SRB,,"10 µM, 48 h",growth percent,95%
CC(=C(c1ccc(O)cc1)c1ccc(Cl)cc1)c1ccc(Cl)cc1,SK-MEL-5,"cell growth or viability, SRB",,,GI50,0.47 µM
C[n+]1cc(NC(=O)c2ccc3ccc4ccc(C(=O)Nc5cc6ccccc6[n+](C)c5)nc4c3n2)cc2ccccc21,T98G multidrug-resistant,CellTiter-Glo,,96 h,GI50,2.9 ± 0.2 µM

# Excerpt of the above:
Compound,tested on,assay,system,setting,endpoint,value
CCC(=C(c1ccc(Cl)cc1)c1ccc(OCCCN(C)C)cc1)c1ccc(OC)cc1,UACC-257,"cell growth or viability, SRB",,,GI50,7.93 µM
